Results gathered from unrelated publications.
Parts stem from different laboratories: compare values within a part only. Substitutions count along the parent as printed.

Set 1
Target: Histone acetyltransferase KAT6A, winged helix 1, GST fusion (KAT6A, Homo sapiens, UniProt Q92794, residues 1-85)
Method: protein binding microarray
Molecule type: double-stranded DNA, one strand shown
Medium: in vitro
Tested at: not given
Notes: 8-mer, flanks averaged, mean of 2 arrays, mostly near background
Relative to: not given
Reading: higher = stronger binding
Measurement: E-score
Residues (chain): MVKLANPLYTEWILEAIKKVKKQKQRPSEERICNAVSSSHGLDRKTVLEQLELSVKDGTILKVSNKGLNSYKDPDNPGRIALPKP
CATAATAA: -0.124
CTTGAGAA: -0.265
AGCATGTC: -0.153
AACTATGC: 0.0114
ACGTAAAG: -0.0387
CACCATGG: -0.153
CGAATAGA: -0.191
CTAGCGTC: 0.157
CTACCGTC: 0.217
TACCTTAA: 0.0228
GGTTGTGA: -0.1
ACCCAATG: -0.111
GATTAGCC: 0.048
GCAGTCCA: -0.0154
TACACGCA: 0.0539
CCCCCACA: -0.235
CGGATCTA: 0.0572
AGGAATTG: -0.187
ACACTATG: -0.014
AACCAGTG: -0.125
GAGTTTGA: -0.167
CTTAGTTC: -0.0549
ACGCATCA: 0.0759
CAGATGTC: -0.0556
CTCGGTCC: 0.0105

Set 2
Target: ABI1, truncated, D143A, DHFR fusion (Arabidopsis thaliana)
Method: DHFR PCA, deep sequencing
Medium: yeast
Notes: methotrexate growth selection, single substitutions
Together with: (+)-ABA 0.11 µM
Relative to: wild-type fitted maximum
Reading: higher = stronger binding
Measurement: relative binding score
Starting sequence: PYL1, truncated, DHFR fusion (Arabidopsis thaliana); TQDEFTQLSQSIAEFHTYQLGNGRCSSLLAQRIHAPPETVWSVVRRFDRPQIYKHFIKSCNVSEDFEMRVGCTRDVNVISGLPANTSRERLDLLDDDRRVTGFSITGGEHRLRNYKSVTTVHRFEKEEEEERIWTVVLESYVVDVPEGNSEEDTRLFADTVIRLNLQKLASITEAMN
D65E: 20.4%
T120Q: -4.36%
W134G: 23.8%
G21E: 50.4%
S59N: 15.6%
I33V: 7.67%
A30C: 16.5%
A35Y: -3.64%
F15I: -1.69%
S171L: 29.1%
E109W: -4.97%
T135L: -3.67%
S11H: 25.5%
S87I: 55.7%
F66T: 13.2%
Q31I: 2.44%

Set 3
Target: CCNE2, cyclin fold, Cln2 fusion (human)
Method: yeast growth competition, sequencing
Medium: yeast
Notes: weak parent motif
Relative to: not given
Reading: higher = stronger binding
Measurement: normalised enrichment score
Starting sequence: CDAN1 docking peptide (human); RGARSQLFPPTEA
S5A: 0.23
F8A: 0.608
P10A: 0.697
T11A: 0.24
L7A: 0.126
R4A: 0.0491

Set 4
Target: Ras GTPase-activating protein-binding protein 1, RRM domain (G3BP1, Homo sapiens, UniProt Q13283)
Chain of UniProt Q13283 (whole entry, looked up): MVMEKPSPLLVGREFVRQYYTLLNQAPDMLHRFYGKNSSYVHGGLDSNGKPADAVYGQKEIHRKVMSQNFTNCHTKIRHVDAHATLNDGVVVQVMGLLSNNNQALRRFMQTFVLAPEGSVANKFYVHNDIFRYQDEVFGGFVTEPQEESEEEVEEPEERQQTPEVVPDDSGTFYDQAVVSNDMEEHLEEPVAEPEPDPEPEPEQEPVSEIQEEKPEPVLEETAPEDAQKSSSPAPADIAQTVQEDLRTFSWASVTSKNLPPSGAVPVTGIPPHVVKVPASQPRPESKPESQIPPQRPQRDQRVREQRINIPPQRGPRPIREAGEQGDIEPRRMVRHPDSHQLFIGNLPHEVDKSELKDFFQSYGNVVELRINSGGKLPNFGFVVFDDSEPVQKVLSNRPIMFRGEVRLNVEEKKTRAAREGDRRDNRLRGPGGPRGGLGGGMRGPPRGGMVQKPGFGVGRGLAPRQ
Method: RNA Bind-n-Seq
Molecule type: RNA
Medium: in vitro
Tested at: 1 µM
Notes: whole 134-nt RNA, ends assumed
Together with: 150 mM KCl
Relative to: input library
Reading: higher = stronger binding
Measurement: log2 enrichment
Constant ends, left off below: GGGAGUUCUACAGUCCGACGAUC … UGGAAUUCUCGGGUGUCAAGG
UGCAGGGUCUGGGUAGCAGCUGGGCUUCCAGCUUUCUCCUUGCACCUGACUUGGGCUUUUUUCUCCUCACAGGAUGGGCCUUGACGGCAU: -0.107
UCCUCAAGUCCUGUGCUACACAUCGUAUGUACCGAAUCGUGUGUGUGUGUGUAAAGUAUUAUGUUACGCCGUUCGGAUCUGCACUUCCAG: -0.00616
GUCCUGUGCUACACAUCGUAUGUACCGAAUCGGGAAAGGGUUUUUUUGGGUUUUUGGGAAAGUAUUAUGUUACGCCGUUCGGAUCUGCAC: 0.103
CCUCAAGUCCUGUGCUACACAUCGUAUGUACCGAAUCGGAAGGAAGGAAGGGAAAGUAUUAUGUUACGCCGUUCGGAUCUGCACUUCCAG: -0.225
CUCAAGUCCUGUGCUACACAUCGUAUGUACCGAAUCGGAAGGGGAAGGAAGGGAAAGUAUUAUGUUACGCCGUUCGGAUCUGCACUUCCA: -0.205
UAACUUUAGAGGAGGAUCUGAUCGAUAUGGCAGUGGACGUGGAUUUGGGGAUGGCUAUAAUGGGUAUGGAGGAGGACCUGGAGGUGGCAA: -0.761
CCUCAAGUCCUGUGCUACACAUCGUAUGUACCGAAUCGGGAGGGAGGGGAGGAAAGUAUUAUGUUACGCCGUUCGGAUCUGCACUUCCAG: -0.0616
AGUCCUGUGCUACACAUCGUAUGUACCGAAUCAAACCCAAACCCAAACCCCCCCAAAAAAGUAUUAUGUUACGCCGUUCGGAUCUGCACU: -0.191
UGGGAGGUGGAUUUUGUUUAUUUUUUCAGCUCAUUUCCAGGGGUGGGAAUUUUUUUUUAAUAUGUGUCAUGAAUAAAGUUGUUUUUGAAA: 1.97
UCCUGUGCUACACAUCGUAUGUACCGAAUCAAAUUUUUUUAAACCCCCCCAAAUUUAAAAAAGUAUUAUGUUACGCCGUUCGGAUCUGCA: -0.8
UCAAGUCCUGUGCUACACAUCGUAUGUACCGAAUCGGUUGGGGUUGGGUUGGGGAAAGUAUUAUGUUACGCCGUUCGGAUCUGCACUUCC: 0.461
UCCUGUGCUACACAUCGUAUGUACCGAAUCGGCCCCCCGGCCCCCCGGGCCCCCCGGGGAAAGUAUUAUGUUACGCCGUUCGGAUCUGCA: -0.409
AGUCCUGUGCUACACAUCGUAUGUACCGAAUCAAACCCCCAAAUUUAAACCCCCAAAAAAGUAUUAUGUUACGCCGUUCGGAUCUGCACU: -0.139
GCAGGAAGUAAAAACAAAUGGAAAUGCUUCGGAUAGUGGCAGGGGUUGGGGUUGCUAAGGAAAGGGUGGGAUGGGAGUGGGUAAAGAGUU: 0.594

Set 5
Target: RING finger protein unkempt homolog, zinc fingers 1-6, GST-SBP tag (UNK, Homo sapiens, UniProt Q9C0B0, residues 30-357)
Chain of UniProt Q9C0B0 (30-357, looked up): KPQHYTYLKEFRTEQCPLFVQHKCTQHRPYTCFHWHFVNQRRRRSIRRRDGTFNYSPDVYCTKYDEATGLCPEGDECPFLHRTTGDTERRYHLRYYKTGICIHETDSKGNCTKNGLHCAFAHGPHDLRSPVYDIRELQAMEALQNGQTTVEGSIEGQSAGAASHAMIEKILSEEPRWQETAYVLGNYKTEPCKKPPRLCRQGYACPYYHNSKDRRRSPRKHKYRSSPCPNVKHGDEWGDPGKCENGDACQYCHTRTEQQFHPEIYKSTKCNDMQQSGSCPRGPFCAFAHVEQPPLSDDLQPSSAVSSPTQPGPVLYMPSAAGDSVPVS
Method: RNA Bind-n-Seq
Molecule type: RNA
Medium: in vitro
Tested at: not given
Notes: RNA with constant flanks, human and mouse sites, ends assumed
Relative to: input RNA pool
Reading: higher = stronger binding
Measurement: bound/input enrichment
Constant ends, left off below: GGGAGUUCUACAGUCCGACGAUC … CAACAGAGGAUUGAGCAUCA
UCACCUGUUCAAGAUAUUGAUACCCCAGAGGUUGAUUUAUACCAAUUACAAGUAAAUACACUUAGGAGAUACAAAAGACACUUCAAGCUACCAACCAGACCAGGACUUAAUAAAGCACAA: 0.445 ratio
GAAGAAGCCUGCUUCACUCUCCAGUACCUAAACAAAUUGUCCAUGAAACCAGAACCUCUGUUUAGAAGUGUAGGCAAUACUAUUGAUCCUGUCAUUCUUUUCCAAAAAAUGGGAGUAGGU: 0.351 ratio
AGGUAUCAUUGCCCAAUGCCCAAGAUCUUUUAUGUUCAGUUAACUGUAGGAAAUAAUGAAUUCUUUGGUGAAGGGAAGACUCGACAAGCUGCCAGACACAAUGCUGCGAUGAAAGCGCUU: 0.312 ratio
CUGCUUUUGAUCCUGCCUGUUGUUGAAGCAGUGGAAGCUGGAGACGCGAUUGCACUCUUAUUAGGUGUGGUUCUCAGCAUUACCGGCAUCUGUGCUUGCUUGGGGAUAUACGCAAGAAAG: 0.957 ratio
CACAUGCUGCCUGGCCAGAACCAGUUCUUGCUGCCAGGCACCCCAGCCGUACAACUCCCUCAGUCACUCUCUGCACUGCCUGCCAACGUGGGAGGCCAGAUCCUCACAGCUGCAGCACCA: 0.103 ratio
UGGGAUUUGUAAGAAGAACCAUGAUCAGCAUCUUCUUUUAUUGUGUGAUACCUGUAAACUACAUUACCAUCUUGGAUGUCUGGAUCCUCCUCUUACAAGGAUGCCAAGAAAGACCAAAAA: 0.111 ratio
AUUCCCAAUGCUACACAACCAGAAAGUAAGGUGUUCUACUUGAAAAUGAAAGGAGAUUAUUUUAGGUAUCUUUCUGAAGUGGCAUCUGGAGACAACAAACAAACCACUGUGUCGAACUCC: 0.285 ratio
AGACAAGGUGUUAAAACCAUAAGGCAGAGGUUGAGUCCAACAUCCAAUAAAAGUUCUCGCAAGUUAUUUGAUCAAGCCAACAAGCUCAAAAAGACCUGUUCUCAUCUUUUUACAGCCACA: 0.228 ratio
AUAAGAAAUUUUCUGUGAAAUAUUCUUUCAUUGUUUAAGCUUUUGUUUUGGUCAUCUUUAUUCAGUUUGCAUGAAGUUGAAAAUUACGGCAUUUUUAAGAUAACUUUUACUUCAUGCCCA: 0.203 ratio
CUCUUCUUGAAUUCUACCGCAGGGACAAGUGGAGGAGCUUAUGAUCAUAGCUAUGUAGAGCUCUUUUUGAAUUCUACAGCAGGGGCAAGUGGUGGUGCUUACGGUAGCCAGAUGAUGGGA: 0.481 ratio
GCCUGUGCCCCCAACAAAGAUGUGGCAGACUGCCUGGCCUUGAUCCUUUCCACCAUGAAGCCUUUCCCACCCAAGGACGCCGUCAGUCCUUUCAGCUUCAGCCUGCUCAAGAACUGCAGC: 0.286 ratio

Other studies, line by line
PhoQ, residues 284 288 289 292 302 303 SLSLLA — fold induction (PhoP, residues 12 14 15 18 19 GQALL (Escherichia coli, UniProt P23836); Sort-seq, item: YFP reporter; E. coli; PhoQ-PhoP variant library, together with: 10 µM Mg2+; relative to: high Mg2+ state, higher = stronger signaling): 11
